Literature values, collected from citations in different studies.
Protocols differ between the studies behind these lines. Values after ≈ are worked out from the molar mass of the structure shown.
Organism: Staphylococcus aureus

`CCCCCCc1cc(-c2cc(Cl)sc2Cl)[nH]c(=O)c1C#N` has an MIC of 2.4 µg/mL (≈ 6.76 µM).
`Oc1c(Br)cc(I)c2nc3cc(Cl)c(Cl)cc3nc12` gave an MBEC of 6.25 µM (MRSA).
With `O=c1cc(-c2ccccc2)c2cc(Br)ccc2n1Cc1nnc2n1N=C(c1ccccc1)CS2` the MIC was 1 µg/mL (≈ 1.89 µM).
`Cc1cccc2nc3c(O)c(Br)c(Cl)c(Br)c3nc12` has an MBEC of 2.35 µM (MRSA).
`CC1=C(C(=O)NNC(N)=S)C(c2ccc(Cl)cc2)C(C(=O)NNC(N)=S)=C(C)N1` — result for “inhibition zone diameter”: 25 mm (concentration not given).
For `O=C(COc1cccc2ccccc12)Nc1ccccc1[N+](=O)[O-]`, the MIC was 62.5 µg/mL (≈ 194 µM).
`CC1=C[C@@H](C)[C@H]2[C@@H]3C(=O)C(Cl)(Cl)C(=O)[C@H](C)C(=O)O[C@@H](C)/C=C/C=C\[C@@H](C)[C@@H]3C=C[C@@H]2C1` has an MIC of 0.006 µg/mL (≈ 0.0125 µM).
For `CC(C)=CCc1cc2c(cc1O)OC[C@H]1c3ccc(O)c(CC=C(C)C)c3O[C@@H]21`, the MIC was 0.78 to 1.56 µg/mL (≈ 1.99 to 3.97 µM) (including MRSA).
The MIC of `NC(=O)c1c(F)ccc(OCc2nc3cc(Cl)cnc3s2)c1F` is reported as 1 µg/mL (≈ 2.81 µM).
For `Nc1ncnc2c1ncn2[C@@H]1O[C@H](COS(=O)(=O)NC(=O)CCC(=O)c2ccccc2C(=O)O)[C@@H](O)[C@H]1O`, the MIC was 31.2 µg/mL (≈ 56.8 µM) (MRSA ATCC BAA-1762).
For `CCc1nc(N)nc(N)c1C#CC(C)c1cc(-c2ccncc2)ccc1OC` (racemic), the MIC was ≤ 0.625 µg/mL.
The MIC of `CCn1cc(C(=O)NCCNCCO)c(=O)c2cc(OCc3ccc(C(F)(F)F)cc3)c(Cl)cc21` is reported as 16 µg/mL (≈ 31.3 µM) (growth; MRSA ATCC 43300).
`NC(=O)c1c(F)ccc(OCc2nc3cc(Cl)cnc3s2)c1F` gave an ED50 of 7 mg/kg (Smith, mouse, infection; subcutaneous, single dose).
